Measured values from different studies.
Numbered parts are unrelated; each lists some results of a single study. Substitutions count along the parent as printed.
Chain of UniProt O15146 (whole entry, looked up): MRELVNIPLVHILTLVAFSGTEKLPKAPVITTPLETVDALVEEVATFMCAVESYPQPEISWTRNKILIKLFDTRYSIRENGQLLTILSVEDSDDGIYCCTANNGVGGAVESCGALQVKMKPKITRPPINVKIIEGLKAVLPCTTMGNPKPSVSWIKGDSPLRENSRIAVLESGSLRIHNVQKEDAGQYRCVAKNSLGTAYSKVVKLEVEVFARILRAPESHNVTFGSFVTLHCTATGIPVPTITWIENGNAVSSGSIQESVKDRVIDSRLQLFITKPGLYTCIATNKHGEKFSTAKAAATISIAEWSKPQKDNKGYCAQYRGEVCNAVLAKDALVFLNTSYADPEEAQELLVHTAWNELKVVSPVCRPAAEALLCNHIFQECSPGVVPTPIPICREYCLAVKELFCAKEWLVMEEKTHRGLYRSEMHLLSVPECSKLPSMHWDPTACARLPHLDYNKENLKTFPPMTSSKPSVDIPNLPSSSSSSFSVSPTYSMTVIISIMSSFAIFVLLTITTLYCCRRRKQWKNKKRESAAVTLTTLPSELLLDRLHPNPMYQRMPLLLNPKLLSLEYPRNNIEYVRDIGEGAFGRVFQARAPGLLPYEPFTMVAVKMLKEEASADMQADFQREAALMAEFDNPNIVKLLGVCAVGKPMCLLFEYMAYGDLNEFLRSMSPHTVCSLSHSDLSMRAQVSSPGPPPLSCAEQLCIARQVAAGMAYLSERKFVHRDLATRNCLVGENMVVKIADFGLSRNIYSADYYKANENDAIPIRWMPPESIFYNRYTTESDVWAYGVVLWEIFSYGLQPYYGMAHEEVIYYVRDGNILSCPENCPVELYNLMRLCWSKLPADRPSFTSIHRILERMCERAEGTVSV
Chain of UniProt Q13153 (whole entry, looked up): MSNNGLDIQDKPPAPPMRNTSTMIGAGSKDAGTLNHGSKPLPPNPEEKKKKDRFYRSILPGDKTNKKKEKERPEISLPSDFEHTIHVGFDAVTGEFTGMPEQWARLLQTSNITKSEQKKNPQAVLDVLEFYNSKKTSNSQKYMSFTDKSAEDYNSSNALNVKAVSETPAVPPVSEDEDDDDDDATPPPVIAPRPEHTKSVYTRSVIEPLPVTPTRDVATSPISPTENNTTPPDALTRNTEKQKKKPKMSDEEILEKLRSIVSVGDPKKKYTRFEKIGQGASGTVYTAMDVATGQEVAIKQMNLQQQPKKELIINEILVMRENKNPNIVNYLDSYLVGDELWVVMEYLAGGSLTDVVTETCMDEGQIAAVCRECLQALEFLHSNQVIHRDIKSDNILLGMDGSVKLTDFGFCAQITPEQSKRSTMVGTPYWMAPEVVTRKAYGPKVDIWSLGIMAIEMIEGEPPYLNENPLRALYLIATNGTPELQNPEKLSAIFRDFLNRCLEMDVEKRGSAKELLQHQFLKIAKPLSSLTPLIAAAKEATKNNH
Chain of UniProt Q9HBY8 (whole entry, looked up): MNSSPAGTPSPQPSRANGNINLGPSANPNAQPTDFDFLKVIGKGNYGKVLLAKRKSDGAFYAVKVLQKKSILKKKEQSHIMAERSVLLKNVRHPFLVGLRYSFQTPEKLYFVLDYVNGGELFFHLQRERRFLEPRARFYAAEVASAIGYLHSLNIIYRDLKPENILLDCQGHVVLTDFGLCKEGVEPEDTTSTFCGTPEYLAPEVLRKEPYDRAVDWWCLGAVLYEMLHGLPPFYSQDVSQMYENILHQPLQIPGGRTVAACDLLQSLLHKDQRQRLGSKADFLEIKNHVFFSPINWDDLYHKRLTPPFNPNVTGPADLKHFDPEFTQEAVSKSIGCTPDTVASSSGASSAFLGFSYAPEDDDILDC
Chain of UniProt P49759 (whole entry, looked up): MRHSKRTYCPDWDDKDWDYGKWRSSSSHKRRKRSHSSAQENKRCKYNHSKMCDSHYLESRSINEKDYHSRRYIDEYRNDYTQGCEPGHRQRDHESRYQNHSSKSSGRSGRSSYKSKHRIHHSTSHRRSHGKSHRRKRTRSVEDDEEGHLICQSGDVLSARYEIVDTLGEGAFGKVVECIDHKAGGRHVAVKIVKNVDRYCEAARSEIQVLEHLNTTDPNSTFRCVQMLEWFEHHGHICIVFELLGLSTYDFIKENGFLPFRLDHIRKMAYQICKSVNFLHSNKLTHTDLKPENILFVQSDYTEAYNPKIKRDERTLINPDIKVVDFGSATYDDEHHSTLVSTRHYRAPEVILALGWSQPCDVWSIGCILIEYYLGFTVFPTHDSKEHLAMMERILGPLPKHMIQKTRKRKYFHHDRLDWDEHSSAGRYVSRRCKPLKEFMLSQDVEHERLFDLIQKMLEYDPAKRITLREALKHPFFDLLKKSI
Chain of UniProt P42680 (whole entry, looked up): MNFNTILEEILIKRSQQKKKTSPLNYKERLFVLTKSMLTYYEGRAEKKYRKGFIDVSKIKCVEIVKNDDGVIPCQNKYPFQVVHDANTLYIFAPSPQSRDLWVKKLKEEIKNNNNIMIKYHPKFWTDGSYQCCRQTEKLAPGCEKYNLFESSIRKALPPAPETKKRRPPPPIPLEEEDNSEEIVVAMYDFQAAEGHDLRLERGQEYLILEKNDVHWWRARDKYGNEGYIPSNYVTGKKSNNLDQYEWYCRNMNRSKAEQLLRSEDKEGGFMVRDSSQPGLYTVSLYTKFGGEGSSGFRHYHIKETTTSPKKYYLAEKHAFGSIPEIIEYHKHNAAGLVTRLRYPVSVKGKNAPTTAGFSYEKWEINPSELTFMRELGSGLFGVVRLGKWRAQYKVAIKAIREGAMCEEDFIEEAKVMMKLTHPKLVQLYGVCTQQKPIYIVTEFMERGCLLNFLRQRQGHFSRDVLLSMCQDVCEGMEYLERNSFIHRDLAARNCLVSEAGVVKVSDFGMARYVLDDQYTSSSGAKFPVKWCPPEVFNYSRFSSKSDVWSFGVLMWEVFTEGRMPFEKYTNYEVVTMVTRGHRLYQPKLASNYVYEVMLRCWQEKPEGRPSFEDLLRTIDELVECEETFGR
Chain of UniProt Q00536 (whole entry, looked up): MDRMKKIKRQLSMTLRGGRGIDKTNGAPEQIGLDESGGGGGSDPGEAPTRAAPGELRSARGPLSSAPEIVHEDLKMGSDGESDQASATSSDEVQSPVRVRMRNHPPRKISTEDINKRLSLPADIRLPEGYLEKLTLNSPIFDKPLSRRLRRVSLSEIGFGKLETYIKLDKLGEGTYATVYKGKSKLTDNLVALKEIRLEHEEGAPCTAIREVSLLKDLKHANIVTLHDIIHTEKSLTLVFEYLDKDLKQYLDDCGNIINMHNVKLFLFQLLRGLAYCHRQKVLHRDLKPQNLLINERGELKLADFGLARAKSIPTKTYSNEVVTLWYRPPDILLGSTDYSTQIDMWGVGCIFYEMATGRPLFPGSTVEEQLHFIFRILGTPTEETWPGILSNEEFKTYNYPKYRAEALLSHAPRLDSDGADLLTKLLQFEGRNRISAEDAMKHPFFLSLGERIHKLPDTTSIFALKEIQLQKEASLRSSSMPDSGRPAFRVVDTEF
Chain of UniProt P48730 (whole entry, looked up): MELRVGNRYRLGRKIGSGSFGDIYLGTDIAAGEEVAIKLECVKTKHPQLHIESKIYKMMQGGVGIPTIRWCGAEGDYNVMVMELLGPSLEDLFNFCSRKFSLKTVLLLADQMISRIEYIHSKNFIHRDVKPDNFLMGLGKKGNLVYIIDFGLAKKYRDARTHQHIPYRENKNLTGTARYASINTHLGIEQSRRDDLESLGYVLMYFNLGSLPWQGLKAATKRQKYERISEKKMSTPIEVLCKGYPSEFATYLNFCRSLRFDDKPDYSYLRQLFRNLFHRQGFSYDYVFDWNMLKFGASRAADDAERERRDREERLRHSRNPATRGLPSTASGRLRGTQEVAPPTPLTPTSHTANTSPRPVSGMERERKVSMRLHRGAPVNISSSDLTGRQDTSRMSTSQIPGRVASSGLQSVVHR
Chain of UniProt Q9HCP0 (whole entry, looked up): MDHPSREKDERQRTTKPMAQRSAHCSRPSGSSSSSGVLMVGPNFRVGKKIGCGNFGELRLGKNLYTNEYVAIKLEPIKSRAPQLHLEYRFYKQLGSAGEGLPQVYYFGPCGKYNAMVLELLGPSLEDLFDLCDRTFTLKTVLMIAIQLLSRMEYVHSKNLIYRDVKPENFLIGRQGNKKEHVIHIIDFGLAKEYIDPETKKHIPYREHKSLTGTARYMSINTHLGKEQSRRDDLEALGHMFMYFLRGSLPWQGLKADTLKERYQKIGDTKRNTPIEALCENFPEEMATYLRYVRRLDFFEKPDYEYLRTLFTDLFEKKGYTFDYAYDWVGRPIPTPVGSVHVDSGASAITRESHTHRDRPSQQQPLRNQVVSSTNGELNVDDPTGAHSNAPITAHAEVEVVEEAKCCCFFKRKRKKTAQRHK
Chain of UniProt P49674 (whole entry, looked up): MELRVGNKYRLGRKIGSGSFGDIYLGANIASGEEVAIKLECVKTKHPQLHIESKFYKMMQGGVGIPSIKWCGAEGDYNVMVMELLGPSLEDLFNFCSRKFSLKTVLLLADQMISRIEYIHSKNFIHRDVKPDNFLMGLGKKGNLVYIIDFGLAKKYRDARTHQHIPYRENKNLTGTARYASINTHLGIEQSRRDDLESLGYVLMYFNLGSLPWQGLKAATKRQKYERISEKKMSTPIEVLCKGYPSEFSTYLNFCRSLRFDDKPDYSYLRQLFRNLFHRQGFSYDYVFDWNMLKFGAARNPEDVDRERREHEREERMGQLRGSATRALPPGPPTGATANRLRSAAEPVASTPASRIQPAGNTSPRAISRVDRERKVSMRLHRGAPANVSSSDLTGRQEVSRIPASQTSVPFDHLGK

Study 1
SMILES: FC(F)(F)c1ccc(/C=C/c2nc(COc3ccc(CCCCn4ccnn4)cc3)co2)cc1
Effect on: enzyme activity
Action: inhibitor
Tested at: 0.5 µM
Relative to: control
target	remaining activity [%]
TEC (Homo sapiens, UniProt P42680)	86.4
MUSK (Homo sapiens, UniProt O15146)	104
SGK2 (Homo sapiens, UniProt Q9HBY8)	103
CSNK1D (Homo sapiens, UniProt P48730)	96.6
PAK1 (Homo sapiens, UniProt Q13153)	104
CSNK1E (Homo sapiens, UniProt P49674)	95.5
SIK2 (Homo sapiens, UniProt Q9H0K1)	103
PRKCQ (Homo sapiens, UniProt Q04759)	99.9
CLK2 (Homo sapiens, UniProt P49760)	89.6
Cyclin-dependent kinase 2, with cyclin E (CDK2, Homo sapiens, UniProt P24941)	96.3
EPHA6 (Homo sapiens, UniProt Q9UF33)	99.3
CLK1 (Homo sapiens, UniProt P49759)	101
MAP3K20 (Homo sapiens, UniProt Q9NYL2)	98.5
CAMK1 (Homo sapiens, UniProt Q14012)	105

Study 2
Target: Histone acetyltransferase KAT6A, winged helix 1, GST fusion (KAT6A, Homo sapiens, UniProt Q92794, residues 1-85)
Technique: protein binding microarray
Molecule type: double-stranded DNA, one strand shown
Matrix: in vitro
Tested at: not given
Notes: 8-mer, flanks averaged, mean of 2 arrays, mostly near background
Relative to: not given
Reading: higher = stronger binding
Target sequence (chain): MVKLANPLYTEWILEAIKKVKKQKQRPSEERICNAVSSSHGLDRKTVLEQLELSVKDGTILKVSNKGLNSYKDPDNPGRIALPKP
Strand	E-score
AGATAGTG	-0.228
AGGTCAGC	-0.0251
ACAATGCT	-0.14
AAGAATAC	-0.101
AACGTGGG	-0.228
AGCTTATG	-0.164
GCCGGGAA	0.338
AATTTTGT	-0.0589

Study 3
Target: ABI1, truncated, D143A, DHFR fusion (Arabidopsis thaliana, UniProt P49597)
Technique: DHFR PCA, dose-response
Matrix: yeast
Notes: Hill fit, mean, not affinity
Added: (+)-ABA, dose series
Reading: lower = more sensitive
Starting sequence: PYL1, truncated, DHFR fusion (Arabidopsis thaliana, UniProt Q8VZS8); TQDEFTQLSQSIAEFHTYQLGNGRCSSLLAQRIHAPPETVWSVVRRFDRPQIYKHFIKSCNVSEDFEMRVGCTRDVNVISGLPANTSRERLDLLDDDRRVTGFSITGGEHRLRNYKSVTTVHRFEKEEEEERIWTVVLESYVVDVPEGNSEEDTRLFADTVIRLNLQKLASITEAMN
Variant	ABA EC50 [µM]
T120A	474
Y53I	186
Y18C	16.8
Q19L	6.18
V78A	53.5
S59W	36.9
V145M	22
E129Y	3.19

Study 4
Structure (SMILES): Cc1c(C(=O)O)cc(-c2ccc(C3CCNCC3)cc2)c2ccc(-c3ccc(C(F)(F)F)cc3)cc12
Technique: competition with immobilised ligand
Tested at: 1 µM
target	effect on	remaining binding [%]
CDK16 (Homo sapiens, UniProt Q00536)	binding	100
FYN (Homo sapiens, UniProt P06241)	binding	100
CSNK1G1 (Homo sapiens, UniProt Q9HCP0)	cell-free assay	100
RET (Homo sapiens, UniProt P07949, V804M)	cell-free assay	98
MUSK (Homo sapiens, UniProt O15146)	binding	100

Excerpt of the above (study 3):
Variant	ABA EC50 [µM]
Y53I	186
T120A	474
Q19L	6.18
